Results collected from several papers.
Lines come from different studies, so protocols differ. Values joined by “and” are separate records of one study, mostly repeats; a detail may differ. ± marks the error that the study gave. ≈ marks a conversion by molar mass, not a printed value.

`C[C@@H](NC(=O)N1C(=O)[C@H](Cc2ccnc(N)c2)[C@H]1C(=O)O)C1CCCCC1`: “incidence of AEs leading to death” 0% (healthy adult Chinese volunteers; continuous intravenous infusion, 1.5 mg/kg/h, 5-day infusion, CTCAE 5.0 grading).
The autosampler stability of `O=c1nc(NO)ccn1[C@@H]1O[C@H](CO)[C@@H](O)[C@H]1O` is reported as 104 ± 2.12% (rat amniotic fluid dialysate; 1000 ng/mL, 6 h, 10 °C, high QC concentration, together with: molnupiravir).
`COc1ccc([C@@H]2CC(=O)c3c(O)cc(O)cc3O2)cc1O` — result for “cumulative faecal excretion”: 25200 ± 2320 ng (Sprague-Dawley rat, male, obese, faeces; oral, 100 mg/kg neohesperidin, 48 h).
`Cn1cncc1-c1c(F)cncc1NC(=O)c1c(N)nn2cc(F)cnc12`: “grade ≥3 creatinine increase incidence” 0% (human patients; oral, 180 mg once daily).
`Fc1ccc([C@@H]2CCNC[C@H]2COc2ccc3c(c2)OCO3)cc1` — result for “List of Complaints score”: 0 score (item: Headache; healthy volunteers; oral, dose not given, given -1 h relative to LSD, together with: LSD; direction not given).
`CCc1ccc(CC/C=C/c2ccc3c(c2)C(=O)CC3)cc1`: “GGT serum activity” 0.67 U/L (Sprague-Dawley rat, male; oral, 30 mg/kg/day, 14 days).
`O=C(Nc1ccc(F)cc1)Nc1ccc2c(c1)C=CCP(=O)(O)O2` has a kinetic solubility of 2350 µg/mL (≈ 6.75 mM) (HPLC-UV; 50 mM PBS; 16 h, pH 7.4, 25 °C, upper limit 2.5 mg/mL).
For `CC(C)(C)c1cc(-n2nc3ccccc3n2)c(O)c(C(C)(C)C)c1`, “mean daily dermal uptake” read 1.14 ng/kg body weight/day (exposure assessment; human, age 21-60 years; foundation).
`Cn1c(-c2ccc(C(N)=O)cc2F)nnc1C(C)(C)Oc1c(F)cc(Cl)cc1F` — result for “medical device site reaction TEAE”: 33.3% (human; oral, 6 mg, single ascending dose).
The MCH of `CC(C)C[C@H](NC(=O)[C@H](CCCCN)NC(=O)OCC1c2ccccc2-c2ccccc21)C(=O)N[C@H](C(=O)N[C@@H](Cc1ccccc1)C(=O)N[C@@H](Cc1ccccc1)C(=O)N[C@@H](CCCCN)C(=O)NCC(=O)N[C@@H](Cc1ccccc1)C(=O)N[C@@H](C)C(=O)N[C@@H](Cc1c[nH]c2ccccc12)C(=O)N[C@@H](CC(N)=O)C(=O)N[C@H](C(=O)N[C@H]1CSSC[C@@H](C(=O)N[C@@H](Cc2c[nH]cn2)C(=O)N[C@@H](CCCNC(=N)N)C(=O)N[C@@H](CCCNC(=N)N)C(=O)N[C@@H](C)C(=O)N[C@@H](CC(N)=O)C(N)=O)NC(=O)[C@H](C(C)C)NC(=O)[C@H](CCCNC(=N)N)NC(=O)[C@H](C(C)C)NC(=O)CNC(=O)[C@H](CC(N)=O)NC(=O)[C@H](CCCNC(=N)N)NC(=O)[C@H](Cc2ccc(O)cc2)NC(=O)[C@H](C(C)C)NC1=O)C(C)C)C(C)C` is reported as 13.3 ± 0.29 pg (ICR mouse, blood; intramammary, 5 mg/kg, day 5, 3 d dosing).
The drug concentration of `COc1ncccc1-c1cnn2ccc(N3CCN(C(=O)OC(C)C)CC3)nc12` is reported as 0.42 µM (rat, STZ model, brain; oral, 1 mg/kg, 240 min).
`O=S(=O)(Nc1ccccc1)c1ccc(NC(=S)Nc2ccccc2)cc1` — result for “blood cell fraction”: 21.3% (item: NE%; female mouse, blood; oral, 80 mg/kg daily, 14 days).
`CO[C@H]1C[C@@H]2CC[C@@H](C)[C@@](O)(O2)C(=O)C(=O)N2CCCC[C@H]2C(=O)O[C@H]([C@H](C)C[C@@H]2CC[C@@H](OC(=O)NCCOCCOCCOCCOCCOCCOCCOCCOCCC(=O)N3CCc4cc(Cn5nc(-c6ccc7oc(N)nc7c6)c6c(N)ncnc65)ccc4C3)[C@H](OC)C2)C[C@@H](O)[C@H](C)/C=C(\C)[C@@H](O)[C@@H](OC)C(=O)[C@H](C)C[C@H](C)/C=C/C=C/C=C/1C`: “any TRAE incidence” 33.3% (phase 1 dose escalation; advanced solid tumour patients; intravenous, 12 mg weekly, grade ≥3).
For `CN1CC[C@@H](c2c(O)cc(O)c3c(=O)cc(-c4ccc(C(F)(F)F)cc4Cl)oc23)[C@@H]1CO`, “patients with adverse event” read 0% (item: Epistaxis; B-cell malignancies; oral, 200 mg, intermittent dosing).
`CC[C@H](C)[C@@H]1NC(=O)[C@@H]2CSSC[C@H](NC(=O)[C@H](CCCNC(=N)N)NC(=O)[C@@H]3CSSC[C@H](NC1=O)C(=O)N[C@@H]([C@@H](C)O)C(=O)N[C@@H](CCCNC(=N)N)C(=O)NCC(=O)N[C@@H](Cc1ccccc1)C(=O)N3)C(=O)N[C@@H](CC(C)C)C(=O)N[C@H]1CSSC[C@H](NC(=O)[C@H](C(C)C)NC(=O)CNC(=O)[C@H](CCCNC(=N)N)NC(=O)[C@H](CCCNC(=N)N)NC1=O)C(=O)N[C@@H](CCCNC(=N)N)C(=O)N2`: “hepatocyte necrosis score” 1 to 2 (Sprague-Dawley rats, female, liver; 10 mg/kg; direction not given).
`O=C(c1cc(Cc2n[nH]c(=O)c3ccccc23)ccc1F)N1CCN(C(=O)C2CC2)CC1` gave an AUC(0-12 h) of 15500 ng·h/mL (HPLC-MS/MS; human patients, plasma; oral, 75 mg, MTD dose level, cycle 1 day 0).
`CCCCCCCC(=O)N[C@@H](CCCCN)C(=O)N[C@@H](CCCCN)C(=O)N[C@@H](C)C(=O)N[C@@H](CC(C)C)C(=O)N[C@@H](CCCCN)C(=O)N[C@@H](CC(C)C)C(=O)N[C@@H](C)C(=O)N[C@@H](CCCCN)C(=O)N[C@@H](CCCCN)C(=O)N1CCC[C@H]1C(=O)N[C@@H](CC(C)C)C(=O)N[C@@H](CCCCN)C(=O)N[C@@H](CC(C)C)C(=O)N[C@@H](CC(C)C)C(=O)N[C@@H](CCCCN)C(N)=O` — result for “volume of distribution”: 1.46 ± 0.149 L/kg (mouse ICR CD1 female, whole blood; intravenous bolus, 3 mg/kg).
`O=C(Nc1ccccc1)C1CCN(C(=O)Oc2cccnc2)CC1`: “adverse event Erythema” 0% (healthy women; oral, 60 mg, 7 days).
`CCCCCOc1ccc(-c2ccc(-c3ccc(C(=O)N[C@H]4C[C@@H](O)[C@@H](OCC[N+](C)(C)C)NC(=O)[C@@H]5[C@@H](O)[C@@H](C)CN5C(=O)[C@H]([C@@H](C)O)NC(=O)[C@H]([C@H](O)[C@@H](O)c5ccc(O)cc5)NC(=O)[C@@H]5C[C@@H](O)CN5C(=O)[C@H]([C@@H](C)O)NC4=O)cc3)cc2)cc1` gave a magnesium of 0.6 mmol/L (adult ICU patients, mITT, serum; dose not given, day 14).
Under “Cmax of (R)-enantiomer”, `O=C(C1CCOCC1)N1CC(=O)N2CCc3ccccc3[C@@H]2C1` is recorded as 97.2 µM (NMRI mouse, female, S. mansoni-infected, plasma; 200 mg/kg).
`N#C[C@@]1(n2ccc(N)nc2=O)O[C@H](CO)[C@@H](O)[C@H]1O` gave a concentration of 1620 ng/g and 731 ng/g and 882 ng/g (CD-1 mouse, lung; oral, 30 mg/kg, 7 h).
The AUC(0-t) of `CCC[C@@](N)(CO)CCc1ccc(OCCCCCC(C)C)cc1` is reported as 15.5 µM·h (male hound dog, plasma; oral, 20 mg/kg, capsule, fasted, geometric mean).
For `C[C@@H]1OC(=O)NN=C1c1ccc(-c2ccc(F)cc2)c(C(F)(F)F)c1`, “patients with adverse event” read 0% (phase I trial, item: Pneumonitis worst grade 3; human patients; 5 mg once daily).
`COc1cc2c(Oc3ccc4[nH]c(C)cc4c3F)ccnc2cc1OCC1(N)CC1` — result for “grade 3 hand-foot syndrome”: 0% (paediatric recurrent refractory sarcoma; 12 mg).
`CCCCCCCCCCCCCCCC(=O)N[C@@H](CCC(=O)NCCCC[C@H](NC(=O)[C@H](CC(=O)O)NC(=O)[C@H](CO)NC(=O)[C@@H](NC(=O)[C@H](Cc1ccccc1)NC(=O)[C@@H](NC(=O)CNC(=O)[C@H](CCC(N)=O)NC(=O)[C@H](CO)NC(=O)[C@@H](N)Cc1c[nH]cn1)[C@@H](C)O)[C@@H](C)O)C(=O)N[C@@H](CO)C(=O)N[C@@H](CCC(=O)O)C(=O)N[C@@H](Cc1ccc(O)cc1)C(=O)N[C@@H](CC(C)C)C(=O)N[C@@H](CC(=O)O)C(=O)N[C@@H](CO)C(=O)N[C@@H](CCC(=O)O)C(=O)N[C@@H](CCCNC(=N)N)C(=O)N[C@@H](C)C(=O)N[C@@H](CCCNC(=N)N)C(=O)N[C@@H](CC(=O)O)C(=O)N[C@@H](Cc1ccccc1)C(=O)N[C@H](C(=O)N[C@@H](C)C(=O)N[C@@H](Cc1c[nH]c2ccccc12)C(=O)N[C@@H](CC(C)C)C(=O)N[C@@H](CCC(=O)O)C(=O)N[C@@H](C)C(=O)NCC(=O)NCC(=O)O)C(C)C)C(=O)O` — result for “treatment-related adverse events”: 0% (item: Tachycardia; humans CrCl at least 90 mL/min; subcutaneous, 100 µg single dose).
With `CN1CCN(c2cccc3c2CCN(C(=O)/C=C/c2c(-n4cnnn4)ccc(Cl)c2F)[C@@H]3C(=O)Nc2ccc(C(=O)O)cc2)C(=O)C1` the deaths was 0% (healthy human subjects; intravenous infusion, 10 mg/h, 2 h).
Under “cobalt in urine”, `O.O.O.O.O.O.[Cl-].[Cl-].[Co+2]` is recorded as 239 µg/L (rat male, urine; oral, 10 mg/kg single, day 3).
The accuracy of `O=c1ccc2cc3ccoc3cc2o1` is reported as 115% (post-procedure stability; rat plasma; 8 ng/mL, 3 h, room temperature).
For `CC(C)[C@@H]1NC(=O)CNC(=O)[C@H](CC(N)=O)NC(=O)[C@H](CCCNC(=N)N)NC(=O)[C@H](Cc2ccc(O)cc2)NC(=O)[C@H](C(C)C)NC(=O)[C@@H](NC(=O)[C@@H](NC(=O)[C@H](CC(N)=O)NC(=O)[C@H](Cc2c[nH]c3ccccc23)NC(=O)[C@H](C)NC(=O)[C@H](Cc2ccccc2)NC(=O)CN)C(C)C)CSSC[C@@H](C(=O)N[C@@H](Cc2cnc[nH]2)C(=O)N[C@@H](CCCNC(=N)N)C(=O)N[C@@H](CCCNC(=N)N)C(=O)N[C@@H](C)C(=O)N[C@@H](CC(N)=O)C(N)=O)NC(=O)[C@H](C(C)C)NC(=O)[C@H](CCCNC(=N)N)NC1=O`, the haemoglobin was 121 ± 1.44 g/L (ICR mice, blood; intraperitoneal, 10 mg/kg daily for 3 days, day 5).
`Cc1cccc(Cn2nc(C3CC3)c3c(NC(=O)c4cnc5cc(OCCN6CCN(C)CC6)ccn45)cccc32)n1` — result for “all-cause adverse events”: 42.1% (CTCAE v4.03, item: blood CPK increased; patients with advanced solid tumours; oral, all dose levels, together with: pembrolizumab 2 mg/kg IV every 3 weeks).
`CC(C)(O)c1cc(Nc2cc(Oc3cn(C4CC4)nc3C3CCOCC3)ccn2)ccn1`: “treatment-related adverse events” 0% (Asthenia; patients with advanced cancer, grade 4 glioma expansion; oral, 50 mg twice daily, grade ≥3, 2 weeks on/2 weeks off schedule).
The concentration of `CN(C(=O)n1cnc(-c2ccc[n+]([O-])c2)c1)C1CCCCC1` is reported as 9.5 ± 1.4 ng/g (Wistar rat, medulla oblongata; oral, 10 mg/kg/day, 72 h, repeated 5 days).
The drug-related TEAEs of `C[C@]1(CO)Cc2ncn(-c3ccc(C#N)c(Cl)c3)c2C(=O)O1` is reported as 25% (human; all treatments, European food-effect part).
`CC1(C)[C@H](C(=O)OCc2cccc(Oc3ccccc3)c2)[C@@H]1C=C(Cl)Cl` — result for “enzyme contribution to clearance”: 0.6% (item: CYP3A4; human, age 6 months, recombinant human CYP3A4; 0.1 µM).
Under “patients with rash”, `O=C1Nc2cc3[nH]nc(-c4ccncc4)c3cc2CN1Cc1ccccc1` is recorded as 0% (CTCAE v4.03; human, relapsed or refractory advanced solid tumours; intravenous, 0.45 mg/kg, pooled schedules).
With `C[C@@H]1NC(=O)[C@H](CCCCNC(=O)CO/N=C/C(=O)NCCCC[C@@H]2NC(=O)[C@@H](Cc3ccccc3)NC(=O)[C@H](CC(=O)O)NC(=O)CNC(=O)[C@H](CCCNC(=N)N)NC2=O)NC(=O)CNC(=O)[C@@H]2CCCN2C(=O)[C@H](CCCCNC(=O)CO/N=C/C(=O)NCCCC[C@@H]2NC(=O)[C@@H](Cc3ccccc3)NC(=O)[C@H](CC(=O)O)NC(=O)CNC(=O)[C@H](CCCNC(=N)N)NC2=O)NC(=O)[C@H](CCCCNC(=O)CCNC(=O)CCNC(=O)CCNC(=O)[C@H](CCCCN)NC(=O)[C@H](Cc2ccccc2)NC(=O)CNC(=O)CN2CCCNCCNCCCNCC2)NC(=O)[C@H](CCCCNC(=O)CO/N=C/C(=O)NCCCC[C@@H]2NC(=O)[C@@H](Cc3ccccc3)NC(=O)[C@H](CC(=O)O)NC(=O)CNC(=O)[C@H](CCCNC(=N)N)NC2=O)NC(=O)CNC(=O)[C@@H]2CCCN2C(=O)[C@H](CCCCNC(=O)CO/N=C/C(=O)NCCCC[C@@H]2NC(=O)[C@@H](Cc3ccccc3)NC(=O)[C@H](CC(=O)O)NC(=O)CNC(=O)[C@H](CCCNC(=N)N)NC2=O)NC1=O` [copper-64 labelled] the tissue uptake was 0.26 ± 0.01 %ID/g (normal mice, muscle; intravenous, 0.74 MBq, 24 h post-injection).
Under “PCE to total erythrocyte ratio”, `COC[C@@H](CC(C)C)NC(=O)c1ccc(C)c(C)c1` is recorded as 0.485 (bone marrow erythrocytes, mouse Hsd:ICR (CD-1), male; oral, 624 mg/kg, 24 h).
